Measurements gathered from unrelated publications.
Lines come from different studies, so protocols differ. ± gives the spread as reported.

For `CNC(=O)c1ccc(-c2cnc3ncc(Cc4ccc5ncccc5c4)n3n2)cc1F`, “Pyelonephritis dose reduction/interruption” read 1% (Japanese patients; oral, 400 mg, any grade).
For `CCCCC1=NC2(CCCC2)C(=O)N1Cc1ccc(-c2ccccc2S(=O)(=O)Nc2noc(C)c2C)c(COCC)c1`, the AUC(0-inf) was 25100 ng·h/mL (healthy adult volunteers, plasma; oral, 100 mg, single dose, fasted, crushed tablet).
`Cc1ccc(C(=O)N(CCCN)C(c2nc3snc(C)c3c(=O)n2Cc2ccccc2)C(C)C)cc1` (centres unmarked) — result for “grade ≥3 dysphagia patients”: 33% (human patients; intravenous, 10 mg/day).
`FC(F)(F)c1ccc(CNc2ccc(Cc3c[nH]c4ncc(Cl)cc34)cn2)cn1` — result for “treatment-related adverse events”: 6% (item: periorbital oedema; human, advanced solid tumours, non-TGCT cohort; oral, 1000 mg/day, any grade).
The AUCtotal of `CC(C)[C@@H](CN1CC[C@@](C)(c2cccc(O)c2)[C@@H](C)C1)NC(=O)[C@H]1Cc2ccc(O)cc2CN1` is reported as 10100 ng·h/g (Sprague-Dawley rat, brain; intraperitoneal, 5 mg/kg).
`CC[C@H](C)[C@H](NC(=O)[C@H](Cc1ccccc1)NC(=O)[C@H](CCC(=O)O)NC(=O)[C@H](CCCCNC(=O)COCCOCCNC(=O)COCCOCCNC(=O)CC[C@H](NC(=O)CCCCCCCCCCCCCCCCC(=O)O)C(=O)O)NC(=O)[C@H](C)NC(=O)[C@H](C)NC(=O)[C@H](CCC(N)=O)NC(=O)CNC(=O)[C@H](CCC(=O)O)NC(=O)[C@H](CC(C)C)NC(=O)[C@H](Cc1ccc(O)cc1)NC(=O)[C@H](CO)NC(=O)[C@H](CO)NC(=O)[C@@H](NC(=O)[C@H](CC(=O)O)NC(=O)[C@H](CO)NC(=O)[C@@H](NC(=O)[C@H](Cc1ccccc1)NC(=O)[C@@H](NC(=O)CNC(=O)[C@H](CCC(=O)O)NC(=O)C(C)(C)NC(=O)[C@@H](N)Cc1cnc[nH]1)[C@@H](C)O)[C@@H](C)O)C(C)C)C(=O)N[C@@H](C)C(=O)N[C@@H](Cc1c[nH]c2ccccc12)C(=O)N[C@@H](CC(C)C)C(=O)N[C@H](C(=O)N[C@@H](CCCNC(=N)N)C(=O)NCC(=O)N[C@@H](CCCNC(=N)N)C(=O)NCC(=O)O)C(C)C`: “change in QTcF” 0.2 ms (healthy human; subcutaneous, 1.5 mg once weekly, 0 h, steady state; baseline: placebo, baseline).
`Cc1occc(=O)c1[O-].[Cl-].[W+4].c1cc[cH-]c1.c1cc[cH-]c1` — result for “oxidation peak potential”: 0.67 to 0.73 V (cyclic voltammetry; acetonitrile; baseline: Ag/AgCl).
`O=C1Nc2ccc(Cl)cc2[C@@](C#CC2CC2)(C(F)(F)F)O1`: “trough plasma concentration” 2820 ng/mL (human, plasma; oral, 600 mg, day 29, mean).
For `Cc1ccc([C@@H]2O[C@H](CO)[C@@H](O)[C@H](O)[C@H]2O)cc1Cc1ccc(-c2ccc(F)cc2)s1`, “urinary sodium excretion change” read 30.6 mEq (Japanese type 2 diabetes patients; 100 mg, day 5, 24 h urine collection; baseline: baseline).
`COc1ccc2[nH]c([S+]([O-])Cc3ncc(C)c(OC)c3C)nc2c1` (centres unmarked) has an AUC(0-t) of 247 ± 80.4 ng·h/mL (healthy Chinese volunteers CYP2C19 RM, plasma; oral, 20 mg single dose, enteric-coated capsules).
Under “LV dP/dt max”, `CN1C[C@H](COc2nccc3c(NCc4ccco4)cc(Cl)nc23)OC1=O` is recorded as “negative” (Langendorff heart; rabbit, isolated heart; concentration not given, positive if change >2 SD).
The Tmax of `C=CCn1c(=O)c2cnc(Nc3ccc(N4CCN(C)CC4)cc3)nc2n1-c1cccc(C(C)(C)O)n1` is reported as 2 h (human; oral, 175 mg twice daily, monotherapy lead-in, -5 days; median).
The bound fraction of `N#C[C@@]1(c2ccc3c(N)ncnn23)O[C@H](CO)[C@@H](O)[C@H]1O` is reported as 0.119 (plasma protein binding; dog plasma; 1 µM).
`CC(C)(C(=O)N1CCOc2c(C#N)cncc2C1)C(F)F`: “subjects with TEAE” 0% (item: medical device site dermatitis; human, both sexes; oral, 10 mg once daily, 14 days, multiple ascending dose).
Under “body weight reduction”, `O=C(O)CC(O)(CC(=O)O)C(=O)O` is recorded as ~62% (Wistar rat; 1000 mg/kg, week 4).
`COc1cc(C)c(-c2c(C)cc(OC)c3c(=O)cc(-c4ccc(N(C)C)cc4)oc23)c2oc(-c3ccc(N(C)C)cc3)cc(=O)c12` gave a purity of 94.2% (reverse phase HPLC; DMSO stock solution; 25 mg/mL, 6 months, -20 °C).
`O=C1CC[C@H](N2Cc3cc(N4CCN(CC5CCN(c6ccc([C@@H]7c8ccc(O)cc8CC[C@@H]7c7ccccc7)cc6)CC5)CC4)ccc3C2=O)C(=O)N1` — result for “participants with TEAE abdominal pain”: 0% (human; oral, 200 mg, added: rosuvastatin 10 mg).

Repeated from above:
`COc1ccc2[nH]c([S+]([O-])Cc3ncc(C)c(OC)c3C)nc2c1` (centres unmarked) has an AUC(0-t) of 247 ± 80.4 ng·h/mL (healthy Chinese volunteers CYP2C19 RM, plasma; oral, 20 mg single dose, enteric-coated capsules).
Under “LV dP/dt max”, `CN1C[C@H](COc2nccc3c(NCc4ccco4)cc(Cl)nc23)OC1=O` is recorded as “negative” (Langendorff heart; rabbit, isolated heart; concentration not given, positive if change >2 SD).
The Tmax of `C=CCn1c(=O)c2cnc(Nc3ccc(N4CCN(C)CC4)cc3)nc2n1-c1cccc(C(C)(C)O)n1` is reported as 2 h (human; oral, 175 mg twice daily, monotherapy lead-in, -5 days; median).
